Results from different studies.
A part holds a random share of what one study measured.

Series 1 — method: universal PBM; molecule type: double-stranded DNA, one strand shown; medium: in vitro; tested at: 600 nM; direction: higher = stronger binding; quantity: E-score
Target: Sal-like protein 4, full length isoform A (SALL4, Homo sapiens, UniProt Q9UJQ4, residues 1-1053)
Chain of UniProt Q9UJQ4 (whole entry, looked up): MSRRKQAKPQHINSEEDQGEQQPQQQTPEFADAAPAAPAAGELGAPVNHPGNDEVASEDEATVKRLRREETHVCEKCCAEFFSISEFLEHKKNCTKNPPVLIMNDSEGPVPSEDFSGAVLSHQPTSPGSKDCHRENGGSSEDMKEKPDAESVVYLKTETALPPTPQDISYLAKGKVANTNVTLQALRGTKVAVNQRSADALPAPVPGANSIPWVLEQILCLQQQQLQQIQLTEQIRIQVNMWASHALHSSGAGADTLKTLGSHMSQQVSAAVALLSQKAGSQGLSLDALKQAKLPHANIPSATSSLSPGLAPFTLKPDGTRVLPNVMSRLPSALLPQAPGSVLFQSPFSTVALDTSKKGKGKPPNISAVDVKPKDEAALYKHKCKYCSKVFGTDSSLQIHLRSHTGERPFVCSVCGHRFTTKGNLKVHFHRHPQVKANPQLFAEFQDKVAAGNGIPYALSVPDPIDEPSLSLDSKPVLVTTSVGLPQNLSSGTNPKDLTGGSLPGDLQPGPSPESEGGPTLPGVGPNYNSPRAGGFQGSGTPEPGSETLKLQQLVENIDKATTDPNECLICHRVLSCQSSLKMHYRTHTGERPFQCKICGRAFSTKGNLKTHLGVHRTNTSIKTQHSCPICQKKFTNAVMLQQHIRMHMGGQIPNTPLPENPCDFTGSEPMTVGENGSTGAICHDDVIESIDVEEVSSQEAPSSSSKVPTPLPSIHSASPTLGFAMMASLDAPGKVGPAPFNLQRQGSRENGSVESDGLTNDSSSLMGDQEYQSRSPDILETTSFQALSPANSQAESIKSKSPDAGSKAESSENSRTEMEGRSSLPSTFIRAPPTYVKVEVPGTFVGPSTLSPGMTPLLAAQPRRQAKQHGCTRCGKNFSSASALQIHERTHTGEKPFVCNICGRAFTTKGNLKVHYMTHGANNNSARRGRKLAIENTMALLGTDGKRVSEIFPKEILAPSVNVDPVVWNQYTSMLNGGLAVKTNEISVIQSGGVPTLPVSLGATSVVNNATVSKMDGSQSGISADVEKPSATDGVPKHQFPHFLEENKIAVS
Notes: 8-mer, flanks averaged, mean of replicates
CATTGATC: 0.05
GTGGATTA: 0.108
CGCAACCC: -0.176
CGACGTTC: -0.214
AGAGGAAA: 0.0975
GATTACAC: 0.0712
CACCCGTA: -0.224
CCATAAAC: 0.0965
GGGCTTTA: -0.2
CAACTCCC: -0.106
AGAACATG: 0.0757
AATACAGA: 0.213

Series 2 — method: protein binding microarray; molecule type: double-stranded DNA, one strand shown; medium: in vitro; tested at: not given; baseline: not given; direction: higher = stronger binding; quantity: E-score
Target: Histone acetyltransferase KAT6A, both winged helices, GST fusion (KAT6A, Homo sapiens, UniProt Q92794, residues 1-181)
Notes: 8-mer, flanks averaged, mean of 2 arrays, mostly near background
Target sequence (chain): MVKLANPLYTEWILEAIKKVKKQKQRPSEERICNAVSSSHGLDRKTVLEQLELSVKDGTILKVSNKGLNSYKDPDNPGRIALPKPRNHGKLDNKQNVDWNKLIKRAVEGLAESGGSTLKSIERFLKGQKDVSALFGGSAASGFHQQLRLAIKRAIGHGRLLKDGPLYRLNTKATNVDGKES
CGGGACGC: 0.289
ATTGATCG: 0.082
AGGTAGTA: -0.0386
AAAGACCG: 0.157
CCTTCAAG: -0.134
AGATACCC: -0.0408
CCAGGACA: -0.0809
CACTTTCA: -0.0342
GAGCCTCA: 0.0436
GCATTTAC: -0.0221

Series 3 — method: protein-binding microarray; molecule type: double-stranded DNA, one strand shown; medium: in vitro; tested at: not given; direction: higher = stronger binding; quantity: E-score
Target: Max-binding protein MNT, bHLH-zipper, MAX partner unstated (MNT, Homo sapiens, UniProt Q99583, residues 220-300)
Notes: k-mer, scored over probes, only values ≥0.25
Target sequence (chain): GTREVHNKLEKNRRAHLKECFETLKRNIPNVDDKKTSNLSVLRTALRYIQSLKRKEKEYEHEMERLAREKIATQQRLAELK
ACGCCCCA: 0.291
GCATGGGC: 0.312
CATGCCTA: 0.304
GCCCACGC: 0.394
CCGCATGC: 0.431
GCGCGCAC: 0.266
GCGTGAGA: 0.287
CCCACCGC: 0.279
ACTCACGC: 0.284

Single results of other studies
PhoQ, residues 284 288 289 292 302 303 TTCLQL — fold induction (PhoP, residues 12 14 15 18 19 STWGI (Escherichia coli, UniProt P23836); Sort-seq, refers to: YFP reporter; E. coli; PhoQ-PhoP variant library, with: 10 µM Mg2+; baseline: high Mg2+ state, higher = stronger signaling): 2.42

For quick reference, copied from above (series 1):
AGAACATG: 0.0757
CGCAACCC: -0.176
